Experimental data gathered from unrelated publications.
Parts stem from different laboratories: compare values within a part only. Changes are numbered by the printed parent chain.

Sample 1
Target: CCND2, cyclin fold, Cln2 fusion (human)
Method: yeast growth competition, sequencing
Medium: yeast
Notes: weak parent motif
Reference: not given
Reading: higher = stronger binding
Measurement: normalised enrichment score
Starting sequence: MICAL3 docking peptide (human); LQLRRQLSFSEDS
LYLRRQLSFSEDS [Q2Y]: 0.175
LNLRRQLSFSEDS [Q2N]: 0.082
LQLIRQLSFSEDS [R4I]: 0.317
LQLRRQLSFHEDS [S10H]: 0.0504
LQLRRQLSFSEAS [D12A]: 0.103
LALRRQLSFSEDS [Q2A]: 0.0161
LQLRRQLAFSEDS [S8A]: -0.243
LFLRRQLSFSEDS [Q2F]: 0.2
LQLRRWLSFSEDS [Q6W]: -0.287
LPLRRQLSFSEDS [Q2P]: 0.648
LQLRRQLSSSEDS [F9S]: 0.118
LQLRRQLSQSEDS [F9Q]: -0.0437
LQRRRQLSFSEDS [L3R]: 0.437
LQLRPQLSFSEDS [R5P]: 0.123
LQLRRQLSFSEES [D12E]: 0.371
LQLRRQLSFAEDS [S10A]: 0.288
LQLRRQWSFSEDS [L7W]: 0.168

Sample 2
Target: RNA binding protein fox-1 homolog 2, RRM domain, GST-SBP tag (RBFOX2, Homo sapiens, UniProt O43251-10, residues 100-194)
Method: RNA Bind-n-Seq
Form: RNA
Medium: in vitro
Tested at: 365 nM
Notes: natural RNA segment, single round, ends assumed
Reference: no-protein control
Reading: higher = stronger binding
Measurement: RBNS enrichment (R)
All sequences stand within: GGGAGUUCUACAGUCCGACGAUC … UGGAAUUCUCGGGUGCCAA
Residues (chain): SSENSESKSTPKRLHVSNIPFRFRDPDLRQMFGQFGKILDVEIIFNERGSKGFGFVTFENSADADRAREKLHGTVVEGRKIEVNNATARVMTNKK
GAGGCCAAGAUUUUUCUGCACACGGAGUGUGGGGAUAGGAGCCGGGCCAAGCGCUGGCCCCUCAGCGGUGAGCCCUGCCCACUCUUACCGAGCAAGGUGGGUGGCUCUGG: 0.36
GAAGUGAUUUCUCAAAAGUAAAGAUACUAUCCCAGAGGGUCGUGGGCAGAAAUGAAGGGAUUUCAUUUGAACUUAGAGCAUGAUGAAUUUGAGUGGGUGCACAGGAAGCA: 23.2
GUAUUCUGAUUCCCCAACCCGCUCCCCUGGGCUCAGAUCUGUCCUGUCCUAGGGCGGAGCCAGGCGGUCCUGAGGGGGAGAUGAAUCCUUAGAGGAGCGCUGUCCCUAUC: 0.128
AACAUAGAUAGUGCUAGUAAUAUUACUUAUAACUGUAAUAUAUAGAUUCAGAAAUACAUUUUCAUUAUCCAAAAUCAGCUUCAACAAAUGGUUUCUGGAGACAAAUAAUU: 0.556
GUGACUCUUGCAGGAACCACUCCAUUGCCCUCCAGCUCCCCAGCCUUCUCAGUUAUAAACAUGCUGGCCAGAUCUCUUAGCCUGCAAAGAGAACUUUCCCCAGUCACCAU: 0.56
GUCUUUGGGUCACCUGCAUUCCAUAGCAUUGUGCUUGUACUUGUGCUCACACGGUUACCUAGGGUAGGCUGGGAGCCAUUGUGGGGUGCAGGGCCUGGCUUGUACUUGGU: 1.16
AAAUCUGUGUUUGCUUUCUGCUUGCUACAUUUGUCUCCCUUACUUUUCUUGAGCUAAAGACAGGCUUUUUCCACCGGCAUCAUCACUGCUAUCAUCAUUAACAGCGUAAU: 4.32
UUGAAUGGGCCCACAGUGUUUAUGUACUCUUAACAACUCACAGAAUAAUACAUGUUCACUUUAUUUUGUAAAAUUGGGUUGAGAGGAAACUAAUGGAGUUUCAUUGUAAC: 1.28

Sample 3
Target: ABI1, truncated, D143A, DHFR fusion (Arabidopsis thaliana)
Method: DHFR PCA, deep sequencing
Medium: yeast
Notes: methotrexate growth selection, single substitutions
With: (+)-ABA 2500 µM
Reference: wild-type fitted maximum
Reading: higher = stronger binding
Measurement: relative binding score
Starting sequence: PYL1, truncated, DHFR fusion (Arabidopsis thaliana); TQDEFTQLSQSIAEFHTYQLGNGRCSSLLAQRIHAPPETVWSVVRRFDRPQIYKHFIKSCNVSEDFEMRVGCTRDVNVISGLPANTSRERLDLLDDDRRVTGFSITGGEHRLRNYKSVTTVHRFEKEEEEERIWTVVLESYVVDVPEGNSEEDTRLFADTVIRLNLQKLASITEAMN; partner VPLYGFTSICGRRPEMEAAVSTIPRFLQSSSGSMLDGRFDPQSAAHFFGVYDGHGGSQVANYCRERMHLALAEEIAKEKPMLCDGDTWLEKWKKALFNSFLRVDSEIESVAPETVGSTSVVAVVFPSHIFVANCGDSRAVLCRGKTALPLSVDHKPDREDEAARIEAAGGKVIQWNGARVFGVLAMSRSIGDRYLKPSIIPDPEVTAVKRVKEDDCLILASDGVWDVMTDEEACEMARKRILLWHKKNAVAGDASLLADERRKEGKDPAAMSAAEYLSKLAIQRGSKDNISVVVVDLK
V118Y: 92.1%
S63E: 91.8%
V121M: 84.9%
T1K: 99.4%
V78A: 85%
F56M: 93.6%
S87H: 31%
N61Q: 105%
E125K: 103%
V43D: 26%
D65W: 91.5%
D65P: 101%

Sample 4
Target: RING finger protein unkempt homolog, zinc fingers 1-6, GST-SBP tag (UNK, Homo sapiens, UniProt Q9C0B0, residues 30-357)
Sequence of UniProt Q9C0B0 (30-357, looked up): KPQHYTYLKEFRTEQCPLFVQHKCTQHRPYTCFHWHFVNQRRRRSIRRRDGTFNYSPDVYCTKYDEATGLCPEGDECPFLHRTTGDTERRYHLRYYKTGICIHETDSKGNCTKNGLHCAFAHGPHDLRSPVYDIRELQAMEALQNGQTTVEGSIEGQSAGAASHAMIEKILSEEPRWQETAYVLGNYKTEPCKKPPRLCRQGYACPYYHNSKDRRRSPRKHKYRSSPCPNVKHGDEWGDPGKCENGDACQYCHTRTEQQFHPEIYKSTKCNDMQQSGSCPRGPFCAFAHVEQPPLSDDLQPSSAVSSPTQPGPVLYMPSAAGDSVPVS
Method: RNA Bind-n-Seq
Form: RNA
Medium: in vitro
Tested at: not given
Notes: RNA with constant flanks, human and mouse sites, ends assumed
Reference: input RNA pool
Reading: higher = stronger binding
Measurement: bound/input enrichment
All sequences stand within: GGGAGUUCUACAGUCCGACGAUC … CAACAGAGGAUUGAGCAUCA
UCAUGGAACUUAUGUGUCAAAACAAAGGAACGGGCAGACUGUCCAUCCCAAGCCAGUUCAAUUAGAUGUAAAUUCAUACUGUUUUAAUUUUUUAUGCAAUCUGAUGAGUAGAUGGGCUCA: 4.1 ratio
AACAGAAUCAAACUAAGCCAUGUAUGAGGGUAAUCGAGAUGAGGAUAUUAACUCAAAAGAAAUAGGGUGAUUUUUAAAGGAUUAAUAAAAUUCUGAAAUGUUAAGUAGAAGAUUACAUUG: 0.657 ratio
GAUCUGUGUAGGUUCUGGAGCAACGUUUUCCCAGUAUUCUUUCAGUUUUUGAACAUCAUGGUGGUUGGAAUUACAGGAGCAGCUGUGGUAAUAACCAUCUUAAAGGUGUUUUUCCCAGUU: 0.246 ratio
GGCAUGAAGCUUGCUUGAGCCAAUGCUAUGCUUGCUGGGCUUUGGCUGACUGGCUUUGGGCCACCAACUGUAUUUGCAUAGUGAUGGCUUGGAAGUGUCCAUAGAAGGGAUUGCAAUAAA: 0.276 ratio
GCAAAACUUUACAGAUACGAUAAAGAUGUUGGCCAGUGGAAAGAAAGAGGCAUUGGAGAUAUAAAGAUCUUACAGAAUUAUGAUAAUAAACAAGUUCGCAUCGUGAUGAGAAGGGACCAG: 0.559 ratio
ACCCAAGUUGGAGUCAUUCGUUGCCCAGUUUGCAGCCAAGAAUGUGCAGAGAGACACAUCAUAGAUAACUUUUUUGUGAAGGACACUACUGAGGUUCCCAGCAGUACAGUAGAAAAGUCA: 1.36 ratio
UGUGUGUGUGUGUGUGUGUGUGUGUGUGUGUGUGUGUGUGUGUGUGUAUGUGUGUGUGUGUGUAUGCAAGUUAUUCCUUCUUGUCAUUUCACACCAAGGAGAAGAUAUUACAUACUUUUU: 1.32 ratio
AAGUGGCUUCUGGAAUAUACAGAAGAAUAUGAUCAGAUAUUUGCUCCUAAGAAAAAACAAAAGAAGGUACAGGAACAAGUGCAUAAGGUAAGUUCGCGCUGUGAAGACGAAAGCCUUCUU: 0.173 ratio

Sample 5
Target: Sal-like protein 4, full length isoform A (SALL4, Homo sapiens, UniProt Q9UJQ4, residues 1-1053)
Sequence of UniProt Q9UJQ4 (whole entry, looked up): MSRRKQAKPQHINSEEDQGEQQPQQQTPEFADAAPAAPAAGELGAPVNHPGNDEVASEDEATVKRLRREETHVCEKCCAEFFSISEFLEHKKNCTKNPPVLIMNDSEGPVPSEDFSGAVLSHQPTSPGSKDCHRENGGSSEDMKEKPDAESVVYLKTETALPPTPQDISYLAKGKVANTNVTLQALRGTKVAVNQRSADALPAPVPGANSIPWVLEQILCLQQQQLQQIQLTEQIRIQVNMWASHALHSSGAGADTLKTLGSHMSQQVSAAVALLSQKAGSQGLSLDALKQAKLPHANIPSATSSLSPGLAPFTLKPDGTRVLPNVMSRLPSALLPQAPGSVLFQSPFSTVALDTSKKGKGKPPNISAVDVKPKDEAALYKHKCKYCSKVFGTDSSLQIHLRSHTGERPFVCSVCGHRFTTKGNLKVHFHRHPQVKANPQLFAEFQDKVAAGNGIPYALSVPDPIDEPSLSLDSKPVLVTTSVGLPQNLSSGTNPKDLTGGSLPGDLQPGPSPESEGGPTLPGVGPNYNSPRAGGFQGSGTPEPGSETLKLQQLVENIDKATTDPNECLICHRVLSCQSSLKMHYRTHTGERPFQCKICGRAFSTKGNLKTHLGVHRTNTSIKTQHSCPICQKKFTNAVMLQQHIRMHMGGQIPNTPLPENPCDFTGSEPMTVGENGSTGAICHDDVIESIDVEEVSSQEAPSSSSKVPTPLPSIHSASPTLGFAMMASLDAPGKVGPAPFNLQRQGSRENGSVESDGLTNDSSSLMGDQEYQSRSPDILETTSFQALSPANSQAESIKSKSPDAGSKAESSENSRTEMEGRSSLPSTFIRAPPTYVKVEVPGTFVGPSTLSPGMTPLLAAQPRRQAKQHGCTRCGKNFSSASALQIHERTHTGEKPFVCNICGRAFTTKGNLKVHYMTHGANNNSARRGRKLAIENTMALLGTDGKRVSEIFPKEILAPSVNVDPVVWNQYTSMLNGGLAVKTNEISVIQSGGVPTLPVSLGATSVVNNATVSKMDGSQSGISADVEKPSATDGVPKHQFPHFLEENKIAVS
Method: universal PBM
Form: double-stranded DNA, one strand shown
Medium: in vitro
Tested at: 600 nM
Notes: 8-mer, flanks averaged, mean of replicates
Reading: higher = stronger binding
Measurement: E-score
ATACCGGG: -0.0719
CTACTTAC: 0.174
ATAGATCA: 0.243
AGGGAAAC: -0.088
AGATGACG: -0.0808
AGTTCAAG: 0.197
CAAGGCAA: 0.121
TGTCGAAA: 0.157
ATGGCGTG: -0.0462
CGGCTGAA: -0.169
AGCCCAGG: -0.351
ATTTTCAA: 0.311
CACTCATC: 0.0882
ATTTTTCA: 0.301
ACGGCAGA: -0.135
TCGAGCGA: -0.203
AGTTGGAT: 0.146
TAGGCGGA: 0.078
AACAAGCG: 0.0805
CACCTGGC: -0.273

Mixed results
PhoQ, residues 284 288 289 292 302 303 NSMLDC
fold induction (PhoP, residues 12 14 15 18 19 AWHSL (Escherichia coli, UniProt P23836); Sort-seq, item: YFP reporter; E. coli; PhoQ-PhoP variant library, with: 10 µM Mg2+; reference: high Mg2+ state, higher = stronger signaling): 2.93

Some of these lines once more (sample 1):
LQLIRQLSFSEDS [R4I]: 0.317
LQLRRQLSFHEDS [S10H]: 0.0504
LQLRRQLSFSEAS [D12A]: 0.103
LALRRQLSFSEDS [Q2A]: 0.0161
LQLRRQLAFSEDS [S8A]: -0.243
LFLRRQLSFSEDS [Q2F]: 0.2
LQLRRWLSFSEDS [Q6W]: -0.287
LPLRRQLSFSEDS [Q2P]: 0.648
LQLRRQLSSSEDS [F9S]: 0.118
LQLRRQLSQSEDS [F9Q]: -0.0437
